Measured values gathered from unrelated publications.
Each line is one published result; not all experiments were run side by side.
ACTA1 pyrene-labeled: Actin, alpha skeletal muscle, pyrene-labeled (ACTA1, Oryctolagus cuniculus, UniProt P68135)
Voltage-dependent P/Q-type calcium channel subunit alpha-1A: Voltage-dependent P/Q-type calcium channel subunit alpha-1A (Homo sapiens, UniProt O00555)
CHUK: Inhibitor of nuclear factor kappa-B kinase subunit alpha (CHUK, Homo sapiens, UniProt O15111)
gag-pol reverse transcriptase: Gag-Pol polyprotein, reverse transcriptase (gag-pol, Human immunodeficiency virus 1, UniProt P03366)

| SMILES | target | assay | test system | conditions | scale | inhibition |
| --- | --- | --- | --- | --- | --- | --- |
| COc1ccc(N2C(=O)N(c3c(C)cccc3Cl)Cc3cnc(Nc4ccc(C5CCN(C)CC5)cc4OC)nc32)nc1 | BMPR1B (Homo sapiens, UniProt O00238) | kinase activity, inhibitor | – | 0.5 µM, kinase ALK6 | – | 16% |
| CO[C@]1([C@@H]2CSC(=O)N2CCCO)C[C@H]2C[C@@H](CC[C@H](C)/C=C\C=C\CC/C(C)=C\C(=O)O2)O1 | ACTA1 pyrene-labeled | actin polymerization, pyrene actin | – | 0.1 µM | reference: vehicle | 0% |
| O=C([O-])/C=C\C(=O)[O-].[Na+].[Na+] | blaNDM-1 (Klebsiella pneumoniae, UniProt C7C422) | inhibitor | – | concentration not given | – | no inhibition |
| N.N.O=C([O-])C1(C(=O)[O-])CCC1.[Pt+2] | Voltage-dependent P/Q-type calcium channel subunit alpha-1A | antagonist | – | 10 µM | – | 10% |
| CN(C(=O)n1cnc(-c2ccc[n+]([O-])c2)c1)C1CCCCC1 | CHUK | enzyme activity | – | 10 µM | – | 4% |
| CC[C@H](C)[C@H](NC(=O)[C@@H](NC(=O)[C@H](N)Cc1ccccc1)C(C)C)C(=O)N[C@@H](C)C(N)=O | APP (Homo sapiens, UniProt P05067) | amyloid-beta aggregation, thioflavin T fluorescence | – | 1.0 µM, 72 h, added: 2 µM amyloid-beta | – | 72.6% |
| CO[C@]1([C@@H]2CSC(=O)N2Cc2ccccc2)C[C@H]2C[C@@H](CC[C@H](C)/C=C\C=C\CC/C(C)=C\C(=O)O2)O1 | ACTA1 pyrene-labeled | actin polymerization, pyrene actin | – | 1 µM | reference: vehicle | 67% |
| C#Cc1n[nH]c2c(-c3cn(C(C)c4ccccn4)c(=O)[nH]c3=O)cc(F)cc12 (stereo not drawn) | Phosphatidylinositol 4,5-bisphosphate 3-kinase catalytic subunit alpha isoform, with p85 alpha (PIK3CA, Homo sapiens, UniProt P42336) | kinase activity, inhibitor | – | 1 µM | – | -8.8% |
| COc1cc(Nc2ncc(F)c(Nc3ccc4c(n3)NC(=O)C(C)(C)O4)n2)cc(OC)c1OC | PIK3CD (Homo sapiens, UniProt O00329) | KINOMEscan | – | 10 µM | – | 62% |
| CO[C@]1([C@@H]2CSC(=O)N2C)C[C@H]2C[C@@H](CC[C@H](C)/C=C\C=C\CC/C(C)=C\C(=O)O2)O1 | ACTA1 pyrene-labeled | actin polymerization, pyrene actin | – | 0.1 µM | reference: vehicle | 11% |
| Cn1cc(-c2cccc(N3CCc4c(sc5c4CC(C)(C)C5)C3=O)c2CO)cc(Nc2ccncn2)c1=O | Protein kinase C beta type, isoform beta-I (PRKCB, Homo sapiens, UniProt P05771) | kinase activity, inhibitor, SelectScreen kinase profiling | – | 1 µM, added: ATP at apparent Km | – | 4% |
| Cc1ncc(C)n2nc(/C=C/c3nc(N4CCCC4)cc(N4CCOCC4)n3)nc12 | human TNF-alpha | binding | – | 10 µM | – | -4% |
| O=c1ccc2ccccc2o1 | DRD1 (Homo sapiens, UniProt P21728) | antagonist radioligand binding | – | 10 µM, SafetyScreen44 | – | -1.18% |
| O=C1CSC(c2cccc(Br)c2)N1c1nc(-c2ccc(S(=O)(=O)N3CCOCC3)cc2)cs1 (stereo not drawn) | gag-pol reverse transcriptase | – | – | 4 µM | – | 10.8% |
| COC(C(=O)N1C(=O)SCC1C1(OC)CC2CC(CCC(C)C=CC=CCCC(C)=CC(=O)O2)O1)c1ccccc1 (stereo not drawn) | ACTA1 pyrene-labeled | actin polymerization, pyrene actin | – | 0.1 µM | reference: vehicle | 0% |
| CN(CCN1CCC(OC(=O)Nc2ccccc2-c2ccccc2)CC1)C(=O)c1ccc(CN2CCC(C(N)=O)CC2)cc1 | rat AMPA receptor | radioligand binding | – | 1 µM, added: [3H]AMPA 8.0 nM | – | -1% |
| O=C(Nc1cnccc1Cl)N1CCN(Cc2ccc3c(c2)OC(F)(F)O3)CC1 | PRKD2 (Homo sapiens, UniProt Q9BZL6) | kinase activity, inhibitor | – | 10 µM, human, added: MAPKAPK substrate | – | -5% |

| SMILES | target | assay | test system | conditions | scale | inhibition |
| --- | --- | --- | --- | --- | --- | --- |
| C[C@H](C(=O)N[C@H]1COc2ccccc2[C@@H]1S(C)(=O)=O)c1ccc(F)cc1 | GABBR1 (Homo sapiens, UniProt Q9UBS5) | activity | – | 10 µM, Eurofins selectivity panel | – | 11% |
| O=C1CSC(c2ccc(F)cc2)N1c1nc(-c2ccc(S(=O)(=O)N3CCCC3)cc2)cs1 (stereo not drawn) | gag-pol reverse transcriptase | – | – | 4 µM | – | 8.36% |
| O=C(/C=C\c1ccccc1)O[C@H]1[C@@H]2C=CO[C@@H](O[C@@H]3O[C@H](CO)[C@@H](O)[C@H](O)[C@H]3O)[C@@H]2[C@@]2(CO)O[C@@H]12 | MAOB (Homo sapiens, UniProt P27338) | inhibitor, fluorescence | – | 0.05 mg/mL, added: kynuramine | – | 56.6% |
| CN1CCN(c2cc(-c3ccncc3)c(-c3ccc4ccccc4c3)nn2)CC1 | P2Y purinoceptor 1 (P2RY1, Homo sapiens, UniProt P47900) | antagonist, FLIPR | – | 10 µM | – | 5.1% |
| O=C1CSC(c2c(F)cccc2Cl)N1c1nc(-c2ccc(S(=O)(=O)N3CCOCC3)cc2)cs1 (stereo not drawn) | gag-pol reverse transcriptase | – | – | 4 µM | – | 61.3% |
| COc1cc2c(c(OC)c1OC)-c1ccc(OC)c(=O)cc1[C@@H](NC(C)=O)CC2 | Voltage-dependent P/Q-type calcium channel subunit alpha-1A | ion current, antagonist | HEK293 | 3 µM | – | -2% |
| O=C1CSC(c2cccc(Cl)c2)N1c1nc(-c2ccc(S(=O)(=O)N3CCCC3)cc2)cs1 (stereo not drawn) | gag-pol reverse transcriptase | – | – | 4 µM | – | 94.4% |
| Clc1cccc(-c2c[nH]c3ncnc(N4CCOCC4)c23)c1 | STK3 (Homo sapiens, UniProt Q13188) | kinase activity, inhibitor, PhosphoSens kinetic | – | concentration not given, 2 h, added: ATP at Km | – | inhibited |
| Nc1ccncc1 | Voltage-dependent P/Q-type calcium channel subunit alpha-1A | antagonist | – | 3 µM | – | 18% |
| O=C(Nc1cccnn1)N1CCC(=Cc2cccc(Oc3ccc(C(F)(F)F)cn3)c2)CC1 | CHUK | enzyme activity, inhibitor | – | 50 µM | – | 6% |
| C/C1=C/C(=O)O[C@@H]2C[C@@H](CC[C@H](C)/C=C\C=C\CC1)O[C@@](OC(=O)c1ccccc1)([C@@H]1CSC(=O)N1)C2 | ACTA1 pyrene-labeled | actin polymerization, pyrene actin | – | 1 µM | reference: vehicle | 67% |
| O=C(O[C@@H]1Cc2c(O)cc(O)cc2O[C@@H]1c1cc(=O)c(O)c2c(O)c(O)cc([C@H]3Oc4cc(O)cc(O)c4C[C@H]3O)c2c1)c1cc(O)c(O)c(O)c1 | PDIA3 (Homo sapiens, UniProt P30101) | di-eosin-GSSG reductase activity | – | 20 µM, 15 min | – | inhibited |
| O=C1CSC(c2c(F)cccc2Cl)N1c1cccc(S(=O)(=O)Nc2nccs2)c1 (stereo not drawn) | gag-pol reverse transcriptase | – | – | 4 µM | – | 44.8% |
| CC(C)N1CCC[C@H]1CNC(=O)c1cn(C2CCCC2)c(=O)c2c1c1ccccc1n2C | KATP potassium channel (human) | radioligand binding | – | 10 µM | – | 5% |
| O=C1CSC(c2cccc(F)c2)N1c1cccc(S(=O)(=O)Nc2nccs2)c1 (stereo not drawn) | gag-pol reverse transcriptase | – | – | 4 µM | – | 46.1% |
| FC(F)(F)c1cccc(Nc2nc(NCCOc3ccccc3)nc3[nH]cnc23)c1 | PRKCB (Homo sapiens, UniProt P05771) | kinase activity, Z'-LYTE | – | 5 µM | – | 7% |

Excerpt of the above:
| SMILES | target | assay | test system | conditions | scale | inhibition |
| --- | --- | --- | --- | --- | --- | --- |
| FC(F)(F)c1cccc(Nc2nc(NCCOc3ccccc3)nc3[nH]cnc23)c1 | PRKCB (Homo sapiens, UniProt P05771) | kinase activity, Z'-LYTE | – | 5 µM | – | 7% |
| COc1cc(Nc2ncc(F)c(Nc3ccc4c(n3)NC(=O)C(C)(C)O4)n2)cc(OC)c1OC | PIK3CD (Homo sapiens, UniProt O00329) | KINOMEscan | – | 10 µM | – | 62% |
| O=C1CSC(c2c(F)cccc2Cl)N1c1nc(-c2ccc(S(=O)(=O)N3CCOCC3)cc2)cs1 (stereo not drawn) | gag-pol reverse transcriptase | – | – | 4 µM | – | 61.3% |
| O=C1CSC(c2cccc(F)c2)N1c1cccc(S(=O)(=O)Nc2nccs2)c1 (stereo not drawn) | gag-pol reverse transcriptase | – | – | 4 µM | – | 46.1% |
